Measured values from different studies.
A part holds a random share of what one study measured.
UniProt P10398, sequence (whole entry, looked up): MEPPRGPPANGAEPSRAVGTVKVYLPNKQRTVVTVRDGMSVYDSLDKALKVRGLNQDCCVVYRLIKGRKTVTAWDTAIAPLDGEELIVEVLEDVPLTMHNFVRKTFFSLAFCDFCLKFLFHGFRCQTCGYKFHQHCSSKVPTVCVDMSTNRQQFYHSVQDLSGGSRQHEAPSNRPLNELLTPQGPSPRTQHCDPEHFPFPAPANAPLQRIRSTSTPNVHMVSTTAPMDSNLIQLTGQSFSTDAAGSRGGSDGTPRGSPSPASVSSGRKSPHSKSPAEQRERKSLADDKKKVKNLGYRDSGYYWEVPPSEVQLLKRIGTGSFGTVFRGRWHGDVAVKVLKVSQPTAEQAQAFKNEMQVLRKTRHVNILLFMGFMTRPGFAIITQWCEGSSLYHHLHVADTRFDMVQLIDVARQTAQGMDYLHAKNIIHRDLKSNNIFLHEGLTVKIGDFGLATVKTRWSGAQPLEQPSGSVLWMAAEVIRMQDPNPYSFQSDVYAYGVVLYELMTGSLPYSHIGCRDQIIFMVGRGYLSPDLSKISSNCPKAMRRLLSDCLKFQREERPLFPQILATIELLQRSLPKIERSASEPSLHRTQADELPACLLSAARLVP

Set 1 — method: RNA Bind-n-Seq; form: RNA; matrix: in vitro; tested at: 365 nM; relative to: no-protein control; direction: higher = stronger binding
Target: RNA binding protein fox-1 homolog 2, RRM domain, GST-SBP tag (RBFOX2, Homo sapiens, UniProt O43251-10, residues 100-194)
Notes: natural RNA segment, single round, ends assumed
All sequences stand within: GGGAGUUCUACAGUCCGACGAUC … UGGAAUUCUCGGGUGCCAA
Residues (chain): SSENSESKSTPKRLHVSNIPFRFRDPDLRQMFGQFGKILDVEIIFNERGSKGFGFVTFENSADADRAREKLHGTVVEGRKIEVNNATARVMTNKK
Sequence	RBNS enrichment (R)
CGGGGAAGGGAAAAACCUGUUGGAGUUGCUUCCAGCCAGCCACGCUCCGGGCCAGCAUGUUGGAAUCCAGCGUGGAGCAGAUGCAGUAAAAAUGUGGUUGGUUUCUGUGU	19.7
AGUGUGUACUCACCUAAUCACUUGUUAUCCAGUGCCUGUUCUAGGUUUAUGGACUUAACUAUUUCUGUGAUGUUUCAUUUUUAGCCAUGUUAACUCCUAACACAUAUUCU	0.242
AACUGGGAGAGUCAAAAGUGAGCAGAAGCUCUCCAUUUCUACUUCUGUCACAAACCACAUUAAAUUGUAAAUAAGGCCCUUCUCCACUUGACUUCAGGCAGCAGAUUGUC	0.369
AAUGCAAAAUGUAUUGCUUUUGAUAUUUCUAUUCUGAGAUGAACCAGUAGCAUGUAAUGCAACUGUUUGACAGUUUAACUCAAUUCAUGCUUCAAACUGUUUUAAUCAUC	0.401
CAAGCAUCUUCUUUCCCCCGCAAGUCCAUUUUAUUUCCUUCUUGUGCUGCUCUGGAAGAGAGGCAGUAGCAAAGAGAUGAGCUCCUGGAUGGCAUUUUCCAGGGCAGGAG	5.52
CCACAUUAACUUCUCUGAUGCCUUAAAAGUGGACUUCUUUGAAGAACUUCUGUGCUAUUUUAUCACAGGCUCAUACCACAAUUGUUAAUAUCUGGAGAUGGAUGAUGAAC	0.443
AUGCCUUACUUGACCUUCCUAGGAACUGUUGAUCAGCUACCUCUUUCUGUCAAGUGUUGGUAGAAUGGGCUGAAAAGACAGGUACUUGCACCGAAAGAGCUCUUCUUUUC	0.169
CUGCCGUGUUUCUUACCCUCCCUUGAAGUUUCUCUAAGCUCAUCACAGCCUAGAGUUCAGGAAAGUUAAUCCACACAGAAGCACAAUUUUGUCCUCUUCCAGACACUGUU	0.36

Set 2 — method: protein-binding microarray; form: hairpin DNA; matrix: in vitro; tested at: not given; relative to: not given; direction: higher = stronger binding; all sequences stand within: GAGGCCCGAA … TTCGGGCCTCACAC
Target: Interferon regulatory factor 1, DNA-binding domain (IRF1, Homo sapiens, UniProt P10914, residues 1-114)
Notes: whole hairpin DNA, median over replicate spots
Residues (chain): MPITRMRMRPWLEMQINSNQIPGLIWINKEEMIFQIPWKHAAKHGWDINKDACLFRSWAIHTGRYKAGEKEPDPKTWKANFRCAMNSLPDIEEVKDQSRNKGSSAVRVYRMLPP
Sequence	median fluorescence [a.u.]
AGTGGAACGCCTCCTGGCGTTCCACT (5mC at 32)	540
ATTGAAACGCCTCCTGGCGTTTCAAT	610
AGCGACGCGCCTCCTGGCGCGTCGCT (5mC at 16 30)	536
AGCGAACCGCCTCCTGGCGGTTCGCT	513
AGTGAAACGCCTCCTGGCGTTTCACT (5mC at 39)	1250
GGTGAAACGCCTCCTGGCGTTTCACC	536
AGCCAAACGCCTCCTGGCGTTTGGCT (5mC at 14)	522
AGTGAACCGCCTCCTGGCGGTTCACT	544

Set 3 — method: protein-binding microarray; form: double-stranded DNA, one strand shown; matrix: in vitro; tested at: 250 nM; notes: 60-bp whole probe; together with: salmon DNA 0.4 mg/ml; relative to: random background probes; direction: higher = stronger binding; all sequences stand within: GCCTAGCAC … GTCTTGATTCGCTTGACGCTGCTG
Target: Interferon regulatory factor 7, full length, phosphomimetic (IRF7, Homo sapiens, UniProt Q92985, residues 1-503, S101K/S471D/S472D/S475D/S476D/S477D/S483D/S484D/S487D)
UniProt Q92985, sequence (whole entry, unmodified, looked up): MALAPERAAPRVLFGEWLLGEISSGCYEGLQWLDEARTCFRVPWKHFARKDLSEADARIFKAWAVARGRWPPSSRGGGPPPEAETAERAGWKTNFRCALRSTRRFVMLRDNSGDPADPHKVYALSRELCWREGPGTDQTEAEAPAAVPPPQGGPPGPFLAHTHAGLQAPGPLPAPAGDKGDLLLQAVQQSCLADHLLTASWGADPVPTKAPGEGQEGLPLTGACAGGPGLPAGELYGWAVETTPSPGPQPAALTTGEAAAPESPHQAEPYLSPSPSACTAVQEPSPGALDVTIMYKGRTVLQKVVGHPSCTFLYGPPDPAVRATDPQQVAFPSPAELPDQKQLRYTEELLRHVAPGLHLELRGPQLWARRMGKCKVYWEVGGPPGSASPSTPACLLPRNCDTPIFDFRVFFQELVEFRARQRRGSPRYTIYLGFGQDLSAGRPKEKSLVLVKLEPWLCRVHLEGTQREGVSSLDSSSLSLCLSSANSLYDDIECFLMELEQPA
Sequence	log fluorescence
GACGAACTGGGGACTGGTGACGTGCTA	-0.584 z-score
GACGATTTCAGCTCCGAGACGTGCTAG	-0.0856 z-score
GACGATTTCGGGACTGTAGACGTGCTA	0.0694 z-score
TTAGGTTCCGGTTTAGGTTAGTGCTAG	8.03 z-score
TTAGGTTCCGTTTTCGGTTAGTGCTAG	8.5 z-score
TTAGTACTGGGTATCGGTTAGTGCTAG	0.987 z-score
TCAGTTGTCCAGGCTGGTACTGTGCTA	0.335 z-score
GACGGACTGGGTATCGGCACGTGCTAG	-0.491 z-score

Single results of other studies
SMILES	target	read-out	mode	tested at	quantity	result
CCN(CC)CCNC(=O)c1c(C)[nH]c(/C=C2\C(=O)Nc3ccc(Cl)cc32)c1C	Serine/threonine-protein kinase A-Raf (ARAF, Homo sapiens, UniProt P10398)	enzyme activity	inhibitor	0.5 µM	remaining activity	132%

Repeated from above (set 2):
Sequence	median fluorescence [a.u.]
ATTGAAACGCCTCCTGGCGTTTCAAT	610
AGCGACGCGCCTCCTGGCGCGTCGCT (5mC at 16 30)	536
